# Measured values pooled from the literature.
# Numbered parts are unrelated; each lists some results of a single study. Several values in a cell are separate wells, animals, samples, runs or records.
# UniProt Q9NZC9, sequence (whole entry, looked up): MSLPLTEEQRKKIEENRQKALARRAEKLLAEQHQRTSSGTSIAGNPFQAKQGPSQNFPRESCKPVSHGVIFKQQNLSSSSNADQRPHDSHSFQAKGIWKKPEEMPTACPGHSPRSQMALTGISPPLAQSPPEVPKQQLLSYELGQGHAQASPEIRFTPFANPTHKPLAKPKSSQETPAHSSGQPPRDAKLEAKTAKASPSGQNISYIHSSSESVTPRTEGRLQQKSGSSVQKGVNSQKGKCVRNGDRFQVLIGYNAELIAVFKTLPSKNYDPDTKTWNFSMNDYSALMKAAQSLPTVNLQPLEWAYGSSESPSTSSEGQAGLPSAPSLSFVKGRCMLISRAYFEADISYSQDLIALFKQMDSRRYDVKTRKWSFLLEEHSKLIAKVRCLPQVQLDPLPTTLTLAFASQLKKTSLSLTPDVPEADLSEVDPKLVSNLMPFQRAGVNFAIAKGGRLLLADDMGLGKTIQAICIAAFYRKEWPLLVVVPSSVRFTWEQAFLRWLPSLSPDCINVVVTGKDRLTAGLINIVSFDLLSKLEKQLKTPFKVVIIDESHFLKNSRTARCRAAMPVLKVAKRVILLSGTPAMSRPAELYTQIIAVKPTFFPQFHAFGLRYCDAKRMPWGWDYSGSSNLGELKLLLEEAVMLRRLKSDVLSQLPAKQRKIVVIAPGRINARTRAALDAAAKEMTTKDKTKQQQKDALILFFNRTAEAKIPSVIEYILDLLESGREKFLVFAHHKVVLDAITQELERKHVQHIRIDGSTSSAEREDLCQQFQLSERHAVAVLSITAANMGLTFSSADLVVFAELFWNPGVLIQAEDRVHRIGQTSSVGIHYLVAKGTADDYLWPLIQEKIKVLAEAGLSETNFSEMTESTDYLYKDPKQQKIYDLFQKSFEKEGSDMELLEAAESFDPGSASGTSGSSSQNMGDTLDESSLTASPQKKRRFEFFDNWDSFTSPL
# UniProt Q15645, sequence (whole entry, looked up): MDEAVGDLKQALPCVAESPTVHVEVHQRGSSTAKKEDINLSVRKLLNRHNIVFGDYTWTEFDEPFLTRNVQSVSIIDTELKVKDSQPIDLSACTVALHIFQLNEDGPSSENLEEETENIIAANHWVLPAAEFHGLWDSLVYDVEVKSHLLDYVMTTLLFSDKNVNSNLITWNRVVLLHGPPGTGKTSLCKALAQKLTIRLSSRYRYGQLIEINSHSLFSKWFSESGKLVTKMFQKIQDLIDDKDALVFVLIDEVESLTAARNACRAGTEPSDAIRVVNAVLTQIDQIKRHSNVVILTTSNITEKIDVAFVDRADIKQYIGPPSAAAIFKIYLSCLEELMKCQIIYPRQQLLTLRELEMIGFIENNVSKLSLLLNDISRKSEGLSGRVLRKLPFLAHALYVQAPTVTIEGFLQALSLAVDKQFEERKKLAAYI
# UniProt Q96PF2, sequence (whole entry, looked up): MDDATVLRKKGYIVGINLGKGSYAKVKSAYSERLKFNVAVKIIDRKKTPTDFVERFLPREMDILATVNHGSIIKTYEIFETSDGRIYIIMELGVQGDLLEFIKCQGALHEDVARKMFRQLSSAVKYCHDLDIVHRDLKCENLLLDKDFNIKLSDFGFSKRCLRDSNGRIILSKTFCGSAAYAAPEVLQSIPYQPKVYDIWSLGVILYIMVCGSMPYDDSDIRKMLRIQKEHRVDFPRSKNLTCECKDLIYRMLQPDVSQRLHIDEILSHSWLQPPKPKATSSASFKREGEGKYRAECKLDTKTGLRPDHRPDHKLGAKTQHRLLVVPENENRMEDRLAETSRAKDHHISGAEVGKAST
# UniProt P11802, sequence (whole entry, looked up): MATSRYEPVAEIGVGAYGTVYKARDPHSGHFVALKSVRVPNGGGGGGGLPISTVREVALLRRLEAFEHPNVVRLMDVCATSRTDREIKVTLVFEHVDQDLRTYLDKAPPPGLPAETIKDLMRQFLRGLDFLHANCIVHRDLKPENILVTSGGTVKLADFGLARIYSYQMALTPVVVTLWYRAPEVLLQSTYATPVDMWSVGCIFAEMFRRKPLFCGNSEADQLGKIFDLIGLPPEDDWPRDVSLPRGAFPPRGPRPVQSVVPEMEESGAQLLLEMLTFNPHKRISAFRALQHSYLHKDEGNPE
# UniProt Q16644, sequence (whole entry, looked up): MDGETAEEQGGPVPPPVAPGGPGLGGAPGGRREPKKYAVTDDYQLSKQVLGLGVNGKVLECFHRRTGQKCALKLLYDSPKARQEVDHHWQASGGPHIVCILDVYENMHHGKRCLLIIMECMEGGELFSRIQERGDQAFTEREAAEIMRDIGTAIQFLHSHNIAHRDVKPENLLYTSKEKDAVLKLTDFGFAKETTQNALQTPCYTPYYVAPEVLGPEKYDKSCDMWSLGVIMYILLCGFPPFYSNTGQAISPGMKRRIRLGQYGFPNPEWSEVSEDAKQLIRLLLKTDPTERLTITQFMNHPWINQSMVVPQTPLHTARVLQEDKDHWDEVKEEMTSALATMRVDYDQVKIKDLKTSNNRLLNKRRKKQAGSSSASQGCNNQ

# Series 1
# Target: Calcium/calmodulin-dependent protein kinase type II subunit alpha (CAMK2A, Homo sapiens, UniProt Q9UQM7)
# UniProt Q9UQM7, sequence (whole entry, looked up): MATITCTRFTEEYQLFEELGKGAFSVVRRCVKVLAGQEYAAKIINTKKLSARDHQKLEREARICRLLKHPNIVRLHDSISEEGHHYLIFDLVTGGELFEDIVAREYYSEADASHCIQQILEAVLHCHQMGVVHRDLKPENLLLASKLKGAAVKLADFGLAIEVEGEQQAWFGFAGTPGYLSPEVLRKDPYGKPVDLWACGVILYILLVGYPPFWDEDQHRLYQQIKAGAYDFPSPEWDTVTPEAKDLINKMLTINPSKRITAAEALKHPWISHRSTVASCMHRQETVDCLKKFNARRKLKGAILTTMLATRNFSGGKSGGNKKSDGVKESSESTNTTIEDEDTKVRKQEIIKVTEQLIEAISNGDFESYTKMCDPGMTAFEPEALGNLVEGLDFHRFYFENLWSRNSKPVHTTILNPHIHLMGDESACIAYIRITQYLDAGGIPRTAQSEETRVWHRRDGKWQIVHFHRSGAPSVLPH
# Effect on: enzyme activity
# Mode: inhibitor
# Tested at: 10 µM
SMILES,inhibition [%]
COC(=O)Nc1nc2cc(C(=O)c3ccccc3)ccc2[nH]1,-5
COc1c(O[C@@H]2O[C@H](CO)[C@@H](O)[C@H](O)[C@H]2O)cc2occ(-c3ccc(O)cc3)c(=O)c2c1O,-25
COC1[C@@H](O)[C@H](O)C(O)[C@H](O)[C@H]1O (stereo partly drawn),8
C=C1C(=O)O[C@@H]2[C@H]3C(C)=CC[C@@]34O[C@@]4(C)CC[C@@H]12,4
COc1ccc(-c2oc3c(CC=C(C)C)c(O[C@@H]4O[C@H](CO)[C@@H](O)[C@H](O)[C@H]4O)cc(O)c3c(=O)c2O[C@@H]2O[C@@H](C)[C@H](O)[C@@H](O[C@@H]3O[C@H](CO)[C@@H](O)[C@H](O)[C@H]3O)[C@H]2O)cc1,-6
CC(C)(C(=O)c1cccnc1)c1cccnc1,-11
O=C(O)c1cc(-c2ccc(F)cc2F)ccc1O,-1

# Series 2
# SMILES: CO[C@@H]1[C@@H](OC(N)=O)[C@@H](O)[C@H](Oc2ccc3c(O)c(NC(=O)c4ccc(O)c(CC=C(C)C)c4)c(=O)oc3c2C)OC1(C)C
# Effect on: ATPase activity
# Technique: ADP-Glo
# Reference: DMSO
# HSP90AA1: Heat shock protein HSP 90-alpha (HSP90AA1, Homo sapiens, UniProt P07900)
# CHD1: CHD1 (Homo sapiens, UniProt O14646)
# UniProt O14646, sequence (whole entry, looked up): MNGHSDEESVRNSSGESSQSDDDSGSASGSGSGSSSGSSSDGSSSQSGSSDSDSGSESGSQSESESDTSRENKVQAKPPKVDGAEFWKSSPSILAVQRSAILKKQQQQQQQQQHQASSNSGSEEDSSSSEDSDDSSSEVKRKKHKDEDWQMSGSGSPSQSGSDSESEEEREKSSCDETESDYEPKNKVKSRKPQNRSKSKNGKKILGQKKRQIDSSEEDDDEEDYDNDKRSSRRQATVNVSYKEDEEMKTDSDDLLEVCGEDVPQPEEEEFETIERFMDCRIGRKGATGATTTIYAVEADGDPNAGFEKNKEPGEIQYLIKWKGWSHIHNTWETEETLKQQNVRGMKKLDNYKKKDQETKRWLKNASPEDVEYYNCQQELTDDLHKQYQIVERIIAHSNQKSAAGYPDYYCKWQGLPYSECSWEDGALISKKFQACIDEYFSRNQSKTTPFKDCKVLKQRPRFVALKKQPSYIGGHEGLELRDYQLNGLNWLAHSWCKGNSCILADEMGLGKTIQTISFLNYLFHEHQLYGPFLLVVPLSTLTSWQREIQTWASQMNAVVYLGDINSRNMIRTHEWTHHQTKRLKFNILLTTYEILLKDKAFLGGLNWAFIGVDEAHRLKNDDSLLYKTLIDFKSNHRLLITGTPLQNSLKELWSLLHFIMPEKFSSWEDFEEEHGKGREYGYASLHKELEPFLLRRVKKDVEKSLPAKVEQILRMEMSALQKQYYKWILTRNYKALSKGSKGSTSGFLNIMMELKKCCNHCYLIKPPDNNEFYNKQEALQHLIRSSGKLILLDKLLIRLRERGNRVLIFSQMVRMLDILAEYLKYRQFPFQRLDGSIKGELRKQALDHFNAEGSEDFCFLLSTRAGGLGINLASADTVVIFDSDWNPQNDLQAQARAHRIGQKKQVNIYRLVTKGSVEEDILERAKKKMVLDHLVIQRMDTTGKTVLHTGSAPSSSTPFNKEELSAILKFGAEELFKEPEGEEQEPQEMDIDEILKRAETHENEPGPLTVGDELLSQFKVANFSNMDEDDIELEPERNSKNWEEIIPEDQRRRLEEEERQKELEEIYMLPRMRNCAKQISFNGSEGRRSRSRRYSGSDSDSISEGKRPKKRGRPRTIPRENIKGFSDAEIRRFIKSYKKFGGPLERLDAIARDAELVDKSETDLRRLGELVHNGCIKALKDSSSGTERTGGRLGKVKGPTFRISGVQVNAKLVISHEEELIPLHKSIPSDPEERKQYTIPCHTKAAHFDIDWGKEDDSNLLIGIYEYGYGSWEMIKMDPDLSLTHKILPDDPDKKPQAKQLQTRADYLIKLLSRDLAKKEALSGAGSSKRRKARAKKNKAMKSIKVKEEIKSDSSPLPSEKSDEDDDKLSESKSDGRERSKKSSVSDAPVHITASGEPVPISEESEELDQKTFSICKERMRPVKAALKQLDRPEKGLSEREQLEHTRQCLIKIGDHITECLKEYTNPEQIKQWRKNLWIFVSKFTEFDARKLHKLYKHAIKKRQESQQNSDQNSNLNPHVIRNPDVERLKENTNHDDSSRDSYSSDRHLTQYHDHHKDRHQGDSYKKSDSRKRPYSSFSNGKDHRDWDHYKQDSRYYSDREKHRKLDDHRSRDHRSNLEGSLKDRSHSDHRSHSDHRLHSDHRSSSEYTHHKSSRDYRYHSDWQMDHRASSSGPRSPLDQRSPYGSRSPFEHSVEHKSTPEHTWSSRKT
# RAD51: DNA repair protein RAD51 homolog 1 (RAD51, Homo sapiens, UniProt Q06609)
# UniProt Q06609, sequence (whole entry, looked up): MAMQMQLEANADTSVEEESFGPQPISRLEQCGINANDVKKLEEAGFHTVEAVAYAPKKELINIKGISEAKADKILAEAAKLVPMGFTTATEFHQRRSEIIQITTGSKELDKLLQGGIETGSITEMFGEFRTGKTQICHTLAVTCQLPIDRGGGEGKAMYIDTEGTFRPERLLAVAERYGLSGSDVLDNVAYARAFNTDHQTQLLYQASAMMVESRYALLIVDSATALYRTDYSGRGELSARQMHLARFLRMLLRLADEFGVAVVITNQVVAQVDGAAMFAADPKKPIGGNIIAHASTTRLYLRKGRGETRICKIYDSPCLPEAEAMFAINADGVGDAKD
target,tested at,remaining activity
"Pachytene checkpoint protein 2 homolog (TRIP13, Homo sapiens, UniProt Q15645)",50 µM,101% and 91.3% and 102% and 104% and 91.4% and 96.7%
HSP90AA1,100 µM,98.5% and 78.2% and 94% and 105% and 99.7% and 95.8%
"SWI/SNF-related matrix-associated actin-dependent regulator of chromatin subfamily A-like protein 1 (SMARCAL1, Homo sapiens, UniProt Q9NZC9)",100 µM,97.1% and 98.4% and 95.7% and 95% and 103% and 96.4%
CHD1,50 µM,75.1% and 91% and 74.9% and 96.1% and 87.4% and 82.7%
RAD51,25 µM,99.4% and 101% and 97.5% and 73.8% and 98.5% and 88.6%
RAD51,50 µM,91.5% and 87.5% and 93.6% and 87.7% and 96.2% and 99.4%
HSP90AA1,25 µM,106% and 117% and 95.8% and 110% and 103% and 107%
CHD1,25 µM,99.6% and 96.2% and 96.6% and 86.9% and 97.2% and 88.7%

# Series 3
# Compound: Cc1cccc(-c2[nH]c(C(C)(C)C)nc2-c2ccc3c(c2)OCO3)n1
# Effect on: enzyme activity
# Mode: inhibitor
# Tested at: 0.5 µM
# Reference: control
target,remaining activity
"Ribosomal protein S6 kinase alpha-5 (RPS6KA5, Homo sapiens, UniProt O75582)",97.5%
"Cyclin-dependent kinase 4, with cyclin D3 (CDK4, Homo sapiens, UniProt P11802)",102%
"Serine/threonine-protein kinase 17A (STK17A, Homo sapiens, UniProt Q9UEE5)",84.1%
"Ephrin type-B receptor 4 (EPHB4, Homo sapiens, UniProt P54760)",91.4%
"Phosphorylase b kinase gamma catalytic chain, skeletal muscle/heart isoform (PHKG1, Homo sapiens, UniProt Q16816)",87.6%
"Testis-specific serine/threonine-protein kinase 2 (TSSK2, Homo sapiens, UniProt Q96PF2)",92.7%
"3-phosphoinositide-dependent protein kinase 1 (PDPK1, Homo sapiens, UniProt O15530)",89.8%
"Ephrin type-B receptor 1 (EPHB1, Homo sapiens, UniProt P54762)",95.5%
"Cyclin-dependent kinase 6, with cyclin D3 (CDK6, Homo sapiens, UniProt Q00534)",98%
"Tyrosine-protein kinase receptor UFO (AXL, Homo sapiens, UniProt P30530)",101%
"Tyrosine-protein kinase Srms (SRMS, Homo sapiens, UniProt Q9H3Y6)",102%
"Serine/threonine-protein kinase WNK3 (WNK3, Homo sapiens, UniProt Q9BYP7)",94.2%
"Ephrin type-A receptor 4 (EPHA4, Homo sapiens, UniProt P54764)",97.3%
"Homeodomain-interacting protein kinase 4 (HIPK4, Homo sapiens, UniProt Q8NE63)",107%
"Mitogen-activated protein kinase kinase kinase kinase 4 (MAP4K4, Homo sapiens, UniProt O95819)",86.9%
"cAMP-dependent protein kinase catalytic subunit gamma (PRKACG, Homo sapiens, UniProt P22612)",119%
"Tyrosine-protein kinase Blk (BLK, Homo sapiens, UniProt P51451)",98.5%
"MAP kinase-activated protein kinase 3 (MAPKAPK3, Homo sapiens, UniProt Q16644)",94.1%
"Serine/threonine-protein kinase 16 (STK16, Homo sapiens, UniProt O75716)",90.1%
"Ribosomal protein S6 kinase alpha-6 (RPS6KA6, Homo sapiens, UniProt Q9UK32)",107%
"Calcium/calmodulin-dependent protein kinase type II subunit beta (CAMK2B, Homo sapiens, UniProt Q13554)",96.2%
"Homeodomain-interacting protein kinase 2 (HIPK2, Homo sapiens, UniProt Q9H2X6)",101%

# Series 4
# Structure (SMILES): O=C(Nc1cnn(-c2csc(C(=O)NC3COC3)c2)c1)Nc1ccccc1Cl
# Effect on: enzyme activity
# Tested at: 5 µM
target,mode,reference,remaining activity [%]
"Testis-specific serine/threonine-protein kinase 2 (TSSK2, Homo sapiens, UniProt Q96PF2)",,untreated control,90
"Serine/threonine-protein kinase N3 (PKN3, Homo sapiens, UniProt Q6P5Z2)",inhibitor,,91.6
"TGF-beta receptor type-1 (TGFBR1, Homo sapiens, UniProt P36897)",,untreated control,101
"Serine/threonine-protein kinase PLK4 (PLK4, Homo sapiens, UniProt O00444)",,untreated control,88
"Cyclin-dependent kinase 1, with cyclin A (CDK1, Homo sapiens, UniProt P06493)",,untreated control,94.6
"Death-associated protein kinase 2 (DAPK2, Homo sapiens, UniProt Q9UIK4)",,untreated control,102
"Casein kinase I isoform gamma-3 (CSNK1G3, Homo sapiens, UniProt Q9Y6M4)",,untreated control,101
"Serine/threonine-protein kinase MARK1 (MARK1, Homo sapiens, UniProt Q9P0L2)",,untreated control,93.7

# For quick reference, copied from above (series 3):
target,remaining activity
"Calcium/calmodulin-dependent protein kinase type II subunit beta (CAMK2B, Homo sapiens, UniProt Q13554)",96.2%
"Tyrosine-protein kinase Srms (SRMS, Homo sapiens, UniProt Q9H3Y6)",102%
"Ribosomal protein S6 kinase alpha-5 (RPS6KA5, Homo sapiens, UniProt O75582)",97.5%
"3-phosphoinositide-dependent protein kinase 1 (PDPK1, Homo sapiens, UniProt O15530)",89.8%
"Ribosomal protein S6 kinase alpha-6 (RPS6KA6, Homo sapiens, UniProt Q9UK32)",107%
"MAP kinase-activated protein kinase 3 (MAPKAPK3, Homo sapiens, UniProt Q16644)",94.1%
